Published values pooled from the literature.
A part holds a random share of what one study measured.

Block 1
Target: Sal-like protein 4, full length isoform A (SALL4, Homo sapiens, UniProt Q9UJQ4, residues 1-1053)
Chain of UniProt Q9UJQ4 (whole entry, looked up): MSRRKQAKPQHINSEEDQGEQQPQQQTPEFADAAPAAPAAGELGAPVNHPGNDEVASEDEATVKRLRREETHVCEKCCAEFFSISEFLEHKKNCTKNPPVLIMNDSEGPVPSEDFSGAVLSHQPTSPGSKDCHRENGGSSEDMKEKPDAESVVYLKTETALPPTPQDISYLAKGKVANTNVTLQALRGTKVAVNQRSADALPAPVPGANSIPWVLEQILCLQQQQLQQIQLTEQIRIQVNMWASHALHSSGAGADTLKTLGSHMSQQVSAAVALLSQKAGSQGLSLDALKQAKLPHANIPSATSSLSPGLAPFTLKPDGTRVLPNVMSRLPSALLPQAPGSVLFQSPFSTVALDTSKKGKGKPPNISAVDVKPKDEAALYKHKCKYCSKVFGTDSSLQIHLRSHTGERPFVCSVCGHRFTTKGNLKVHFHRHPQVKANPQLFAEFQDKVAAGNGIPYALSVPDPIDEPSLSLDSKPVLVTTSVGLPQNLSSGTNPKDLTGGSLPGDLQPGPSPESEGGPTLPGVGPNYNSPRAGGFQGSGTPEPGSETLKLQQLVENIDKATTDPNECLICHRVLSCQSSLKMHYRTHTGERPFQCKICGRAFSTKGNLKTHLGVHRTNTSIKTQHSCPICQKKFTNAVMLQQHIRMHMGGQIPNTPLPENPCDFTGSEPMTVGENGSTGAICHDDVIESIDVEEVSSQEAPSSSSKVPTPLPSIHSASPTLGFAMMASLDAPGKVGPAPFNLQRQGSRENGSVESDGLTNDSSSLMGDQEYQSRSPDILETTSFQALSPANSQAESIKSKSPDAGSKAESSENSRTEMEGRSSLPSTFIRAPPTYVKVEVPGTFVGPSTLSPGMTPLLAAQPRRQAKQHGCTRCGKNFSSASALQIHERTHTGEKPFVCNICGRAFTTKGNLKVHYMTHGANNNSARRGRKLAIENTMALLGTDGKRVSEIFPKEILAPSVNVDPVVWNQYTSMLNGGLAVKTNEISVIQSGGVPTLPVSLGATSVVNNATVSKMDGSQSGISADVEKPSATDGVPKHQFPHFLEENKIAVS
Technique: universal PBM
Form: double-stranded DNA, one strand shown
Sample: in vitro
Tested at: 600 nM
Setting: 8-mer, flanks averaged, mean of replicates
Reading: higher = stronger binding
Strand	E-score
ATTGATCG	0.179
TCTAGCCA	-0.00383
CCTACGAC	-0.0279
ACTGCCTC	-0.142

Block 2
Target: Centromere-binding protein 1, full length, His-tagged (CBF1, Saccharomyces cerevisiae, UniProt P17106, residues 1-351)
Chain of UniProt P17106 (whole entry, looked up): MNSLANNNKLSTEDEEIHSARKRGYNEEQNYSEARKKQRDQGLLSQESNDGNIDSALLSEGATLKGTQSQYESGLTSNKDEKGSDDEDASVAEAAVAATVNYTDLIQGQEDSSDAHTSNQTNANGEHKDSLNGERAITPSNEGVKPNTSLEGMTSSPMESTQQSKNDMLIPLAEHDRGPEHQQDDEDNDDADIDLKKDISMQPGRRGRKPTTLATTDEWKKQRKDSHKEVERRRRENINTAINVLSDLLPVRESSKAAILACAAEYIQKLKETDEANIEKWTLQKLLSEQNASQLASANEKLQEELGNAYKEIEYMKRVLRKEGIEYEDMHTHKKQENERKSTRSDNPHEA
Technique: competition protein-binding microarray
Form: double-stranded DNA, one strand shown
Sample: in vitro
Tested at: 2 µM
Setting: whole 60-bp probe, lowest competitor level
Together with: Pho4 competitor, 0.05 µM
Reading: higher = stronger binding
Strand	fluorescence intensity
ACCCCCGCCCTCAAAGCCGTGACTCGATAACGACTTGTCTTGATTCGCTTGACGCTGCTG	133 a.u.
ACCTGAAATCCTTTTACAAACCATATTTAGATGTGCGTCTTGATTCGCTTGACGCTGCTG	91.2 a.u.
GTTAAGTTATTATGACGCATGCAGATAGAAGGATCAGTCTTGATTCGCTTGACGCTGCTG	90 a.u.

Block 3
Target: Interferon regulatory factor 7, full length, phosphomimetic (IRF7, Homo sapiens, UniProt Q92985, residues 1-503, S101K/S471D/S472D/S475D/S476D/S477D/S483D/S484D/S487D)
Technique: protein-binding microarray
Form: double-stranded DNA, one strand shown
Sample: in vitro
Tested at: 250 nM
Setting: 60-bp whole probe
Together with: salmon DNA 0.4 mg/ml
Reference: random background probes
Reading: higher = stronger binding
Construct (chain): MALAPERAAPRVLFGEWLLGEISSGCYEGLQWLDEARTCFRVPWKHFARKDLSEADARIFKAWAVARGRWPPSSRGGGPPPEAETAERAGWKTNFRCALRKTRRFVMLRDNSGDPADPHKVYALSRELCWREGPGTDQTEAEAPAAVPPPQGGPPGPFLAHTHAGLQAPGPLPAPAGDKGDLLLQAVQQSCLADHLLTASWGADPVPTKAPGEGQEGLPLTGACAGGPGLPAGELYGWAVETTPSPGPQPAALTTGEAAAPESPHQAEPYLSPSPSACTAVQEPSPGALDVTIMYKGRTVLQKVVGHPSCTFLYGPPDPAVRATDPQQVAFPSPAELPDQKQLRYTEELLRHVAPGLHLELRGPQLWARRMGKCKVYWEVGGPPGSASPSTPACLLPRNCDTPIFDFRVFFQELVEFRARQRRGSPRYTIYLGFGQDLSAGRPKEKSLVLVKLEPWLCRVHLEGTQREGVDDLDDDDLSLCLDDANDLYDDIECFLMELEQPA
Strand	log fluorescence [z-score]
GCCTAGCACGAGGGTCTCCTTCTCCTGACGTGCTAGGTCTTGATTCGCTTGACGCTGCTG	-0.226
GCCTAGCACTTAGGACTGGACTTTCGATTAGTGCTAGTCTTGATTCGCTTGACGCTGCTG	0.722
GCCTAGCACTTTGATATCGGGTTTCGATTAGTGCTAGTCTTGATTCGCTTGACGCTGCTG	6.47

Other studies, line by line
Molecule	target	assay	system	conditions	scale	measurement	result
PhoQ, residues 284 288 289 292 302 303 SVHLDV	PhoP, residues 12 14 15 18 19 HLGGL (Escherichia coli, UniProt P23836)	Sort-seq, item: YFP reporter	E. coli	PhoQ-PhoP variant library, together with: 10 µM Mg2+	reference: high Mg2+ state, higher = stronger signaling	fold induction	1.69

Some of these lines once more (block 3):
Strand	log fluorescence [z-score]
GCCTAGCACTTAGGACTGGACTTTCGATTAGTGCTAGTCTTGATTCGCTTGACGCTGCTG	0.722
GCCTAGCACTTTGATATCGGGTTTCGATTAGTGCTAGTCTTGATTCGCTTGACGCTGCTG	6.47
